Results of several laboratories.
Protocols differ between the studies behind these lines. “And” joins repeats or separate records; there may be more than shown. ± gives the spread as reported.
B1: CCT2; sequence looked up; chain ASLSLAPVNIFKAGADEERAETARLTSFIGAIAIGDLVKSTLGPKGMDKILLSSGRDASLMVTNDGATILKNIGVDNPAAKVLVDMSRVQDDEVGDGTTSVTVLAAELLREAESLIAKKIHPQTIIAGWREATKAAREALLSSAVDHGSDEVKFRQDLMNIAGTTLSSKLLTHHKDHFTKLAVEAVLRLKGSGNLEAIHIIKKLGGSLADSYLDEGFLLDKKIGVNQPKRIENAKILIANTGMDTDKIKIFGSRVRVDSTAKVAEIEHAEKEKMKEKVERILKHGINCFINRQLIYNYPEQLFGAAGVMAIEHADFAGVERLALVTGGEIASTFDHPELVKLGSCKLIEEVMIGEDKLIHFSGVALGEACTIVLRGATQQILDEAERSLHDALCVLAQTVKDSRTVYGGGCSEMLMAHAVTQLANRTPGKEAVAMESYAKALRMLPTIIADNAGYDSADLVAQLRAAHSEGNTTAGLDMREGTIGDMAILGITESFQVKRQVLLSAAEAAEVILRVDNIIKAAPRKRVPDHHPC
B2: cystatin A; sequence looked up; chain MIPGGLSEAKPATPEIQEIVDKVKPQLEEKTNETYGKLEAVQYKTQVVAGTNYYIKVRAGDNKYMHLKVFKSLPGQNEDLVLTGYQVDKNKDDELTGF

Molecule = (−)-antroquinonol A; tested on = PANC-1; assay = cytotoxicity, MTS; setting = 72 h; endpoint = IC50; value = > 25 µM
Molecule = GWTLNSAGYLLGPHAVDNHRSFNDKHGFT-NH2 (C-amide); system = peptide, Arrb2 intestinal cKO mice, DSS colitis; setting = ip, 3 µM, 2% DSS; endpoint = colon length; value = 5.3 cm and 5.5 cm and 5.2 cm and 5 cm
Molecule = hexaarginine; tested on = PorA peptide pore; assay = peptide binding, planar bilayer single-channel recording; setting = 0.5 µM, pH 7.4, +10 mV, trans side, 150 mM KCl; endpoint = koff; value = 1430 ± 140 s⁻¹
Molecule = colistin; tested on = Aspergillus fumigatus; system = pkcA G579R, solid minimal medium; setting = 10 µM, 4 days, 37 °C; how to read = relative to: untreated; endpoint = radial growth ratio; value = 0.974 and 1 and 0.975
Molecule = nonaarginine; tested on = PorA peptide pore; assay = peptide binding, planar bilayer single-channel recording; setting = 0.5 µM, pH 7.4, +15 mV, trans side, 150 mM KCl; endpoint = koff; value = 100 ± 10 s⁻¹
Molecule = aspterric acid; assay = hypocotyl length; system = Arabidopsis thaliana Col-0 seeds; setting = 100 µg/mL, 7 days, dark; endpoint = inhibition; value = 99.6%
Molecule = PENVAPR (CCT4); assay = peptide binding, SILAC pull-down; setting = concentration not given; how to read = relative to: non-acetylated over acetylated NIT1 peptide; endpoint = log2 fold change; value = 1.37
Molecule = FINTKEYKN; tested on = Mamu-B*08301 MHC class I; assay = peptide binding; system = peptide, Chinese rhesus macaque; endpoint = IC50; value = > 20 µM
Molecule = AIMEMPSFYSHGLPR (ADAR protein); assay = peptide binding, SILAC pull-down; setting = concentration not given; how to read = relative to: non-acetylated over acetylated NIT1 peptide; endpoint = log2 fold change; value = 0.318
Molecule = insulin human; assay = refers to: CAMK2A mRNA; system = uninfected mouse, brain; setting = i.p., dose not given; how to read = relative to: PBS; endpoint = fold change; value = 1.2
Molecule = B1 (CCT2); assay = peptide binding, SILAC pull-down; setting = concentration not given; how to read = relative to: non-acetylated over acetylated NIT1 peptide; endpoint = log2 fold change; value = 1.07
Molecule = GWTLNSAGYLLGPRRIDHLLMIKEMPIARGREEAPGA / YAVDNHRSFNDKHGFT-NH2 (C-amide); system = Gnaq flox control mice, DSS colitis; setting = ip, 3 µM, 2% DSS; endpoint = colon length; value = 6.8 cm and 6 cm and 6.7 cm and 5.8 cm and 6.5 cm
Molecule = B2 (cystatin A); assay = peptide binding, SILAC pull-down; setting = concentration not given; how to read = relative to: non-acetylated over acetylated NIT1 peptide; endpoint = log2 fold change; value = 0.269
Molecule = pertussis toxin; assay = immunostaining; system = humanized mouse, SAH model, meningeal F4/80+ macrophages; setting = dose not given; endpoint = p-PKC level; value = 17.6 MFI
